Published values gathered from unrelated publications.
Lines come from different studies, so protocols differ. ± gives the spread as reported. Values after ≈ are worked out from the molar mass of the structure shown.
CYP2C19: Cytochrome P450 2C19 (CYP2C19, Homo sapiens, UniProt P33261)
Chain of UniProt P33261 (whole entry, looked up): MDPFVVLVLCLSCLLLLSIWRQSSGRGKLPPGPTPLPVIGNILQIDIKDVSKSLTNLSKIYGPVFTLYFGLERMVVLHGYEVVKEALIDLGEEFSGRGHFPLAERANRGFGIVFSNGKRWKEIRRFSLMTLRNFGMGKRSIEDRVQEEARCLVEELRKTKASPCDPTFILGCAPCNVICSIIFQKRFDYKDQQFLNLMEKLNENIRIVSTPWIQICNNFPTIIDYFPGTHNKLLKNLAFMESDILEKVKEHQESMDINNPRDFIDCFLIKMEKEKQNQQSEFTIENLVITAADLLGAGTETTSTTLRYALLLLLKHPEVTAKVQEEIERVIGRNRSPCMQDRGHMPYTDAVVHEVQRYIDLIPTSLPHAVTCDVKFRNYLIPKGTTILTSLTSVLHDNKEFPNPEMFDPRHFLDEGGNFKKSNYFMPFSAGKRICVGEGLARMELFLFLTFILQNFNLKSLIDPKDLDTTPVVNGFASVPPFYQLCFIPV
Chain of UniProt Q06520 (whole entry, looked up): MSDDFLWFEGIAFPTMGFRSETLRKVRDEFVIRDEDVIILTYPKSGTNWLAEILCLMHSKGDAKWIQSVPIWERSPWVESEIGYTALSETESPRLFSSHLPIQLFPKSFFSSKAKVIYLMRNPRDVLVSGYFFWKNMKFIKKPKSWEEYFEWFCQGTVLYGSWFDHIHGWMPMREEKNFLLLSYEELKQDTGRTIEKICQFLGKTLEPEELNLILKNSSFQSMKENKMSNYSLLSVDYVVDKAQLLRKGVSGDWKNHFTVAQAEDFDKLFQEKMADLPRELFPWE

SMILES | tested on | assay | test system | setting | how to read | quantity | result
O=C(O)CCC(NP(=O)(O)OCCC[C@@H](NC(=O)CCC(NC(=O)CCCCCNC(=O)c1ccc([18F])cc1)C(=O)O)C(=O)O)C(=O)O (stereo partly drawn) | CWR22Rv1 tumour model |  | host not given, bone | intravenous, 1 h, tumour-bearing |  | tracer uptake | 0.38 %ID/g
C=C(C)[C@@H]1CCC(C(=O)O)=C[C@H]1c1c(O)cc(CCCCC)cc1O | CYP2C19 |  |  | concentration not given, single dose, added: fluconazole steady state |  | decrease in Cmax | 48%
COc1ccc(CNc2nc(N3CCC[C@H]3CO)ncc2C(=O)NN)cc1Cl | Salmonella typhimurium |  | TA97a | 500 µg/plate, 48 h |  | revertant count | 91 ± 5
CC[C@H](C)C(=O)N1CCC(NC(=O)Nc2ccc(OC(F)(F)F)c(F)c2)CC1 |  |  | healthy volunteers | oral, 16 mg single dose, 14 (unit not given) |  | subjects with moderate TEAE | 0%
COc1cc2c(=O)cc(-c3ccccc3)oc2c2c1OC(C)(C)C=C2 | differentiated SH-SY5Y | MTT |  | 1 µM | baseline: control | viability | 99.1 ± 3.2%
C=C(C)[C@@H]1CCC(CO)=C[C@H]1c1c(O)cc(CCCCC)cc1O | CYP2C19 |  |  | concentration not given, single dose, added: fluconazole 200 mg once daily |  | half-life | 19.3 h
Cc1cccc(-c2nc(Nc3ccncn3)c3sccc3n2)n1 |  |  | human liver microsomes |  |  | intrinsic clearance | 3.6 mL/min/g
CC(=O)N[C@@H](CO)C(=O)N[C@@H](CC(=O)O)C(=O)N[C@@H](CCCCNC(=O)CCCC[C@@H]1SC[C@@H]2NC(=O)N[C@@H]21)C(=O)N1CCC[C@H]1C(=O)O | A549 | flow cytometry |  | 40 µg/mL, 30 min, 37 °C | baseline: cells | cellular uptake | 34.7 ± 2.1%
CC(C)[C@H](NC(=O)CNC(=O)[C@H](CCC(N)=O)NC(=O)[C@H](C)N)C(=O)O |  |  | human | 3 mg/kg single dose |  | subjects with serious adverse events | 0%
C[C@@](O)(C(F)F)[C@H](NC(=O)c1ccc(C#CC#CC2CC2)cc1)C(=O)NO |  |  | dog, plasma | oral, 50 mg/kg |  | Cmax | 7700 ng/mL
Nc1nc2c([C@@H]3O[C@@H]4COP(=O)(O)O[C@H]5[C@@H](O)[C@H](c6scc7c(=O)[nH]c(N)nc67)O[C@@H]5COP(=O)(O)O[C@H]4[C@H]3O)scc2c(=O)[nH]1 |  |  | water |  |  | absorption maximum | 317 nm
N[C@]1(c2ccccc2Cl)CCC[C@H](O)C1=O |  |  | Wistar rats | intravenous, 20 mg/kg, 10 min |  | plasma concentration | 12000 ± 364 ng/mL
Cc1ccc(-n2cc(C3(c4ccc5c(c4)OC(F)(F)O5)CC3)nn2)cc1-c1cccc(C(=O)O)c1 |  |  | human liver microsomes |  | baseline: analogous amide | intrinsic clearance fold increase | ~5
COc1cc(C(=O)NCCOCCOCCOCCNC(=O)c2ccc([18F])nc2)ccc1NC(=O)C1NC(CC(C)(C)C)C(C#N)(c2ccc(Cl)cc2F)C1c1cccc(Cl)c1F (stereo not drawn) | HepG2 tumour model |  | host not given, bone | 2 h, tumour-bearing |  | tracer uptake | 0.72 %ID/g
CN(C)CC1CCCCC1(O)c1cccc(O)c1 (stereo not drawn) | P-glycoprotein |  | Caco-2 TC7 | 10 µM, 3 h, pH 6.8 apical, 7.4 basolateral, added: cyclosporin A 10 µM |  | Papp A to B | 6.8 ± 0.3 ×10⁻⁶ cm/s
COc1ccc(CNc2nc(N3CCC[C@H]3CO)ncc2C(=O)NNC(=O)c2cnc(N3CCC[C@H]3CO)nc2NCc2ccc(OC)c(Cl)c2)cc1Cl | Salmonella typhimurium |  | TA102 | 250 µg/plate |  | revertant count | 262 ± 8
Nc1nc2c([C@@H]3O[C@@H]4COP(=O)(O)O[C@H]5[C@@H](O)[C@H](n6cnc7c(=O)[nH]c(N)nc76)O[C@@H]5COP(=O)(O)O[C@H]4[C@H]3O)snc2c(=O)[nH]1 |  |  | water |  |  | molar absorption coefficient | 4380 M⁻¹ cm⁻¹
CN[C@](C)(C[18F])C(=O)O | SK-OV-3 tumour model |  | host not given, bone | 30 min, tumour-bearing |  | tracer uptake | 2.5 %ID/g
C[C@]12CC[C@H](O)CC1CCC1C2[C@H](O)C(=O)[C@]2(C)[C@@H](c3ccc(=O)oc3)CC[C@]12O (stereo partly drawn) | SULT2A1 (Homo sapiens, UniProt Q06520) | sulfation, substrate | recombinant enzyme | pH 7.4 |  | CLint | 75.9 µL/min/mg
CSCC[C@@H]1NC(=O)[C@@H]2CSSC[C@H](NC(=O)[C@H](CO)NC(=O)[C@H](C)N)C(=O)N[C@@H](CCCNC(=N)N)C(=O)N[C@@H]([C@@H](C)O)C(=O)N3CCC[C@H]3C(=O)N[C@@H](CCCCN)C(=O)N[C@@H](CC(=O)O)C(=O)N[C@H]3CSSC[C@H](NC(=O)[C@H](CCCCN)NC(=O)[C@H](CCCNC(=N)N)NC(=O)[C@H](CC(N)=O)NC1=O)C(=O)N[C@@H](CCCCN)C(=O)N[C@H]1CSSC[C@H](NC(=O)[C@@H]4CCCN4C(=O)[C@H](CC(=O)O)NC(=O)[C@H](C)NC3=O)C(=O)N[C@@H](C)C(=O)N[C@@H](CCCCN)C(=O)N[C@@H](CCC(=O)O)C(=O)N[C@@H]([C@@H](C)O)C(=O)NCC(=O)N[C@@H](CSSC[C@@H](C(N)=O)NC(=O)[C@H](CCCNC(=N)N)NC(=O)[C@H](CC(N)=O)NC1=O)C(=O)N1CCC[C@H]1C(=O)N[C@@H](Cc1ccc(O)cc1)C(=O)NCC(=O)N[C@@H](CCCCN)C(=O)N2 |  |  | DA rat pristane-induced arthritis, serum | subcutaneous, 0.1 mg/kg once weekly, 21 days |  | Magnesium | 2.06 mg/dL
O=C(O)CCC(NP(=O)(O)OCCC[C@@H](NC(=O)CCC(NC(=O)c1ccc([18F])cc1)C(=O)O)C(=O)O)C(=O)O (stereo partly drawn) | CWR22Rv1 tumour model |  | host not given, liver | intravenous, 1 h, tumour-bearing |  | tracer uptake | 0.83 %ID/g
CN(C)C(CNC(=O)Nc1cc(C(F)(F)F)ccc1N1CCOCC1)c1ccncc1 (stereo not drawn) |  |  | mouse, serum | intraperitoneal, 240 mg/kg single dose |  | serum total protein | 4.3 g/dL
O=C(O)CCC(NP(=O)(O)OCCC[C@@H](NC(=O)CCC(NC(=O)CCCCCNC(=O)CCCCCNC(=O)c1ccc([18F])cc1)C(=O)O)C(=O)O)C(=O)O (stereo partly drawn) | CWR22Rv1 tumour model |  | host not given, spleen | intravenous, 2 h, tumour-bearing |  | tracer uptake | 0.19 %ID/g
CCC(=O)N(C)c1ccc(Cl)c(Cl)c1 | Salmonella typhimurium | Ames test | TA100 | 0.10 mg/plate, without S9 |  | revertant colonies | 72 ± 13.9 revertants/plate
COc1ccc2c(=O)c(OC)c(-c3ccc(OC)c(OC)c3)oc2c1 | differentiated SH-SY5Y | MTT |  | 0.1 µM | baseline: control | viability | 103 ± 4%
Nc1nc2ncc(CNc3ccc(C(=O)N[C@@H](CCC(=O)NCCOCCOCCNC(=O)CN4CCN5CCN(CC4)CC(=O)[O][Al]([18F])[O]C(=O)C5)C(=O)O)cc3)nc2c(=O)[nH]1 | A549 tumour model |  | host not given, tumour | 90 min, tumour-bearing |  | tracer uptake | 2.8 %ID/g
COc1ccc2nc(C)cc(OCC(=O)Nc3cc(C)cc(C)c3)c2c1 |  | CLND | phosphate-buffered saline | 1 (unit not given), pH 7.4 |  | kinetic solubility | 32 µM (≈ 11.2 µg/mL)

A few entries again:
SMILES | tested on | assay | test system | setting | how to read | quantity | result
O=C(O)CCC(NP(=O)(O)OCCC[C@@H](NC(=O)CCC(NC(=O)c1ccc([18F])cc1)C(=O)O)C(=O)O)C(=O)O (stereo partly drawn) | CWR22Rv1 tumour model |  | host not given, liver | intravenous, 1 h, tumour-bearing |  | tracer uptake | 0.83 %ID/g
COc1cc(C(=O)NCCOCCOCCOCCNC(=O)c2ccc([18F])nc2)ccc1NC(=O)C1NC(CC(C)(C)C)C(C#N)(c2ccc(Cl)cc2F)C1c1cccc(Cl)c1F (stereo not drawn) | HepG2 tumour model |  | host not given, bone | 2 h, tumour-bearing |  | tracer uptake | 0.72 %ID/g
